Earlier results, collected from citations in different studies.
Protocols differ between the studies behind these lines. ± gives the spread as reported.

| Compound | target | test | test system | conditions | how to read | quantity | value |
| --- | --- | --- | --- | --- | --- | --- | --- |
| Nc1nc(=O)n(C2CCCS2)cc1C#CCNS(=O)(=O)C1CC1 (stereo not drawn) | IspE Escherichia coli | enzyme activity, inhibitor |  |  |  | IC50 | 4.73 ± 1.19 µM |
| CC(C)[C@H](NC(=O)[C@H](CO)NC(=O)[C@@H](N)CC(=O)O)C(=O)N[C@H]1CSC(=O)[C@H](Cc2ccccc2)NC(=O)[C@H](Cc2ccc(O)cc2)NC(=O)[C@H](CO)NC(=O)[C@H](C)NC1=O | AgrC-II Staphylococcus epidermidis | agr signalling |  | concentration not given |  | activity | inhibited |
| CN(C)c1ccc(/C=C/C(=O)c2ccc(OC(=O)N3CCCC3)cc2O)cc1 | amyloid beta 1-42 | Cu2+-induced aggregation |  | 25 µM |  | inhibition | 79.7% |
| COc1ccc(N2CCN(C(=O)ON3C(=O)C4CN(Cc5ccc(Oc6ccccc6)cc5)CCN4C3=O)CC2)cc1 (stereo not drawn) | PPT1 | inhibitor |  | concentration not given |  | inhibition | inhibited |
| CCCCCCCCCCCCCC(=O)N[C@@H](CO)C(=O)N[C@H](C(=O)N[C@@H](Cc1ccc(O)cc1)C(=O)N[C@@H](CCCNC(=N)N)C(=O)N[C@@H](CCCNC(=N)N)C(=O)NCC(=O)N[C@@H](C)C(=O)N[C@@H](CCCNC(=N)N)C(=O)N[C@@H](CCCNC(=N)N)C(=O)N[C@@H](Cc1c[nH]c2ccccc12)C(=O)N[C@@H](CCCNC(=N)N)C(=O)N[C@@H](CCCCN)C(=O)N[C@@H](CC(C)C)C(=O)O)[C@@H](C)CC | PKMζ-RFP fusion |  | transfected cultured cells | concentration not given |  | inhibition | no inhibition |
| CCn1c(CC(=O)N2CCN(c3ccccc3)CC2)nc2sc3c(c2c1=O)CCCC3 | Aβ |  |  |  |  | IC50 | 2.08 µM |
| CC(=O)N[C@H]1[C@@H](OC[C@H](NC(=O)CNC(=O)[C@@H]2CCCN2C(=O)[C@H](C)NC(=O)[C@@H]2CCCN2C(=O)[C@@H](N)CCCNC(=N)N)C(=O)N[C@H](C(=O)N[C@@H](C)C(=O)N2CCC[C@H]2C(=O)N2CCC[C@H]2C(=O)N[C@@H](C)C(=O)N[C@@H](Cc2c[nH]cn2)C(=O)NCC(=O)O)[C@@H](C)O)O[C@H](CO)[C@H](O)[C@@H]1O | 14 A monoclonal antibody | SPR |  |  |  | kon | 117000 M⁻¹ s⁻¹ |
| N=C(Nc1ccc(OCCCCCOc2ccc(NC(=N)c3ccccc3)cc2)cc1)c1ccccc1 | Kir2.1 | whole-cell current, manual patch clamp |  | 3 µM, at -110 mV |  | inhibition | 68% |
| CSCC[C@@H]1NC(=O)[C@@H]2CSSC[C@H](NC(=O)[C@H](CO)NC(=O)[C@H](C)N)C(=O)N[C@@H](CCCNC(=N)N)C(=O)N[C@@H]([C@@H](C)O)C(=O)N3CCC[C@H]3C(=O)N[C@@H](CCCCN)C(=O)N[C@@H](CC(=O)O)C(=O)N[C@H]3CSSC[C@H](NC(=O)[C@H](CCCCN)NC(=O)[C@H](CCCNC(=N)N)NC(=O)[C@H](CC(N)=O)NC1=O)C(=O)N[C@@H](CCCCN)C(=O)N[C@H]1CSSC[C@H](NC(=O)[C@@H]4CCCN4C(=O)[C@H](CC(=O)O)NC(=O)[C@H](C)NC3=O)C(=O)N[C@@H](C)C(=O)N[C@@H](CCCCN)C(=O)N[C@@H](CCC(=O)O)C(=O)N[C@@H]([C@@H](C)O)C(=O)NCC(=O)N[C@@H](CSSC[C@@H](C(N)=O)NC(=O)[C@H](CCCNC(=N)N)NC(=O)[C@H](CC(N)=O)NC1=O)C(=O)N1CCC[C@H]1C(=O)N[C@@H](Cc1ccc(O)cc1)C(=O)NCC(=O)N[C@@H](CCCCN)C(=O)N2 | Kv1.3 potassium channel |  |  |  | baseline: Kv1.3 over Kv1.1 | selectivity ratio | 2000 fold |
| Cc1ncsc1-c1ccc(CNC(=O)[C@@H]2C[C@@H](O)CN2C(=O)[C@@H](NC(=O)CCCCCCCCCC(=O)NCCN2CCN(Cc3cccc(-c4ccc(N5CCN(C)CC5)c(NC(=O)c5c[nH]c(=O)cc5C(F)(F)F)c4)c3)CC2)C(C)(C)C)cc1 | WDR5 | protein degradation, degrader | MV4-11 |  |  | Dmax | 71% |
| Nc1c(C(=O)O)ncn1C1OC(COP(=O)(O)O)C(O)C1O (stereo not drawn) | Escherichia coli PurE |  |  |  |  | kcat | 16 s⁻¹ |
| COc1cc(O)c2c(c1)/C=C/C[C@H](O)[C@H](O)C(=O)/C=C\C[C@H](C)OC2=O | STK16 |  |  | concentration not given | baseline: control | remaining binding | 100% |

Excerpt of the above:
| Compound | target | test | test system | conditions | how to read | quantity | value |
| --- | --- | --- | --- | --- | --- | --- | --- |
| CC(=O)N[C@H]1[C@@H](OC[C@H](NC(=O)CNC(=O)[C@@H]2CCCN2C(=O)[C@H](C)NC(=O)[C@@H]2CCCN2C(=O)[C@@H](N)CCCNC(=N)N)C(=O)N[C@H](C(=O)N[C@@H](C)C(=O)N2CCC[C@H]2C(=O)N2CCC[C@H]2C(=O)N[C@@H](C)C(=O)N[C@@H](Cc2c[nH]cn2)C(=O)NCC(=O)O)[C@@H](C)O)O[C@H](CO)[C@H](O)[C@@H]1O | 14 A monoclonal antibody | SPR |  |  |  | kon | 117000 M⁻¹ s⁻¹ |
